# Assay results collected from several papers.
# Every numbered part comes from another study and shows a few of its results, in no order.

# Sample 1
# Target: human cyclin A2
# Observed: peptide binding
# Technique: competitive growth sequencing
# Molecule type: peptide
# Organism: Saccharomyces cerevisiae
# Strain: cyclin A2-Cln2 fusion strain
# Concentration: concentration not given
# Setting: peptide tiling library
# Reference: unfused Cln2 strain
# Reading: direction not given
Molecule,binding score
EMARYKRKLLINDFGR,-0.873
VRDLSYRLVFLACCVA,0.184
TRRRLFVENDSP,2.69
DSGFCLDSPGPLDSKE,-0.459
SDSTVTKLDFDLEP,-0.144
SMTDFYHSKRRLIFSK,1.07
TSPGPVLLHPSPSTTQ,0.0696
VLVRTSACRSLFGPVD,1.17
NSMKELNFSHLPSNSV,-0.13
NNIRKALSFDNRGEEH,1.19
LENIEPLQVSFAVLSS,-0.123
GPPAKRRLELGESGHQ,2.55
PPKPLAKARFDIEGSD,-0.528
LKGRRLVFDN,1.58
DGCSPIKNWSPMRL,-0.319
RNRGPKLNAMLRLGVL,0.571
NEGVSNAVRRSLYIRD,0.406
EVTKVRANAFNQELLS,-0.0569
RVSGLLSWTLSRVLWL,1.21
RQVRRDLFAF,0.716
PYSPALPAFGLSYTPV,0.0313
KPCHRAVACFDSTTAP,-0.829
GPPAKARAELGESGHQ,-0.345
NFETPEAETPIRSPFK,-0.136
RTSACRSLFGPVDHEE,1.89

# Sample 2
# Target: Interferon regulatory factor 7, full length, phosphomimetic (IRF7, Homo sapiens, UniProt Q92985, residues 1-503, S471D/S472D/S475D/S476D/S477D/S483D/S484D/S487D)
# Technique: protein-binding microarray
# Molecule type: double-stranded DNA, one strand shown
# Matrix: in vitro
# Concentration: 2200 nM top
# Setting: 60-bp whole probe
# Together with: salmon DNA 0.4 mg/ml
# Reference: random background probes
# Reading: higher = stronger binding
# Shared flanks, not repeated: GCCTAGCAC … GTCTTGATTCGCTTGACGCTGCTG
# Target sequence (chain): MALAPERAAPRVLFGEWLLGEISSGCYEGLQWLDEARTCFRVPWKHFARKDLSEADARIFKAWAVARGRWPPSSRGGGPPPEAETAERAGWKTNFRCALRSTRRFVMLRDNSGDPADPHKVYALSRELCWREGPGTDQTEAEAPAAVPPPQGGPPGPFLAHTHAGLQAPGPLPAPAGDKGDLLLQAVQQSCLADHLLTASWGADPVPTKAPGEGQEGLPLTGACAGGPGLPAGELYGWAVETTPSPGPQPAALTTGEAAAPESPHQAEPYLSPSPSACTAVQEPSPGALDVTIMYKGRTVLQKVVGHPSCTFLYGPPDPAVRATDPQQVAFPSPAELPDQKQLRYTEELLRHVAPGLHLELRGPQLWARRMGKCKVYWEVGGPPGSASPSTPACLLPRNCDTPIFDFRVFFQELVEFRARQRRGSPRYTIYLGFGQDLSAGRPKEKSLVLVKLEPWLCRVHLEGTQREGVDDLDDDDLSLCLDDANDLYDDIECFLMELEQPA
Oligonucleotide,fitted relative affinity [z-score]
GCCGGACTGGGGACTGGGGACGTGCTA,-0.826
TTAGATCTCAGACCGGATTAGTGCTAG,-0.23
TTAGGTTTCGACAGTGGGTTAGTGCTA,1.37
TTAGAACTGAGTTTTGATTAGTGCTAG,-0.0805
TTAGATTTCAGTTTGGATTAGTGCTAG,2.16
GTCGGTTTCGACACTGGGGACGTGCTA,3.83
TTAGGTGTCGGACTGGGTTAGTGCTAG,-0.339
TTAGGTTACCTTATCCTTTAGTGCTAG,0.759
GACGGTCTCGGTCTCGAGACGTGCTAG,-0.363
TGAGGACTGGGACTGGGTTAGTGCTAG,-1.06
AAATGTTTTGTTTTTCATTAGTGCTAG,2.43
TCACTTAGGTTTTCTGGTACTGTGCTA,1.71
TTAGGTTTCGACCTTCGGTTAGTGCTA,4.24
GACGGACTGGGTTTCGCGACGTGCTAG,0.199
TACGGTCTCCTTATCCTGACGTGCTAG,1.68
GACGAATTGAGTATCGAGACGTGCTAG,-0.263
GACGGTTTCGGTTCCGAGACGTGCTAG,10.5
GACGGTTTCCTACTGCTGAAGTGCTAG,1.93
TCATTTATGCACTCTTTAACTGTGCTA,1.11

# Sample 3
# Target: RNA binding protein fox-1 homolog 2, RRM domain, GST-SBP tag (RBFOX2, Homo sapiens, UniProt O43251-10, residues 100-194)
# Technique: RNA Bind-n-Seq
# Molecule type: RNA
# Matrix: in vitro
# Concentration: 365 nM
# Setting: natural RNA segment, single round, ends assumed
# Reference: no-protein control
# Reading: higher = stronger binding
# Shared flanks, not repeated: GGGAGUUCUACAGUCCGACGAUC … UGGAAUUCUCGGGUGCCAA
# Residues (chain): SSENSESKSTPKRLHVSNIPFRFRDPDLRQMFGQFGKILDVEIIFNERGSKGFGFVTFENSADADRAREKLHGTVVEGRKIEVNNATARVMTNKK
Oligonucleotide,RBNS enrichment (R)
GUGUGGAGCUAGGUAGGCUAGGGUCUGUUUCACCAGGAAUCUCUCCUGAGGCCCAGUGGCAGCCUCUGUCACAGGGUCCCAGAGCCUGAGCUGAGGCGUCACCCUUAAAG,0.354
AUAGCUAAAGAAAUUUUUGUGGUUUCUCUGCUUAUGGUUUUGAGUUACUCUUUGUUCAGUAAUGCACUUUAUUUUAUUGUCCAAAGAGAGUCAAGCUAAAGCUACCACCU,0.551
AUGCUUUGUUUUGGGGCUGUAUUUUUGAAAUACUCUACAAGAAAGCUGUGGCUCAACACAUGAGAAGAAGCACGAAGCAGUUAGGCUGUACAUCAGACAGAAGGGUAAUG,0.794
CAAGGACACGUGCGCCUGCCUUCCCGCUCCCUCUCUCUCAGAGAUUGCCCUUUCUUCCCGAGGGCUGUGGGCCAGCGCUCCGAAGGAAGCAAUCAAGGGGAGAAAACACA,0.436
GGAACUAAGAGCUUAGAAGGAGGCAGACCGGGAAGUAGGCCAUGGCCAGGGGCAGGAAAUGAAGCCCUGCUGUCGGUCACCUCUACUAAAUCAAGCAAAUGGUCCUCUAU,0.638
ACAGAUGCAGCUAAACUAAACAGUGCUUUUCAGACUAGUGUGUGUGUGUGUGUGUGUUCACACAUGUGUGUCUUCACAUGUAUAGAAGUAGCCCUGUAAGGAGGGGCAGA,0.719
GGAUGACACUGUAAACUCUCUGGACGAGUAGGAGCAAGGUGAGACAUUUCAAGAAAUUACAGACUUCAUUAAAGGUGUAAAUUAAAGUGGCUUGCCAAAAACGAGGAACU,0.734
AUGUUCUGUAGUGUGUUUACCCUCAUUAUGAAGCAAAUUAGCAAUGCAUUGAUUAAUGUUCACUUAUACAUUCCUGUACAGAAAUUAUGAUUUUUGUGAUUAUAGUAAUA,0.331

# Further values, each from its own experiment
Molecule,target,test,test system,conditions,how to read,endpoint,result
"PhoQ, residues 284 288 289 292 302 303 TASMAF","PhoP, residues 12 14 15 18 19 AGCRL (Escherichia coli, UniProt P23836)","Sort-seq, item: YFP reporter",E. coli,"PhoQ-PhoP variant library, together with: 10 µM Mg2+","reference: high Mg2+ state, higher = stronger signaling",fold induction,12.4

# A few entries again (sample 1):
Molecule,binding score
LENIEPLQVSFAVLSS,-0.123
PPKPLAKARFDIEGSD,-0.528
PYSPALPAFGLSYTPV,0.0313
RVSGLLSWTLSRVLWL,1.21
RQVRRDLFAF,0.716
RNRGPKLNAMLRLGVL,0.571
NNIRKALSFDNRGEEH,1.19
